Values quoted from earlier work, collected from citations in different studies.
Protocols differ between the studies behind these lines. Several values in a cell are separate wells, animals, samples, runs or records. ± marks the error that the study gave. In brackets after ≈: the same amount, converted by molar mass.
BRD4 BD1: Bromodomain-containing protein 4, BD1 (BRD4, Homo sapiens, UniProt O60885)
lasR: Transcriptional activator protein LasR (lasR, Pseudomonas aeruginosa, UniProt P25084)
Sequence of UniProt P25084 (whole entry, looked up): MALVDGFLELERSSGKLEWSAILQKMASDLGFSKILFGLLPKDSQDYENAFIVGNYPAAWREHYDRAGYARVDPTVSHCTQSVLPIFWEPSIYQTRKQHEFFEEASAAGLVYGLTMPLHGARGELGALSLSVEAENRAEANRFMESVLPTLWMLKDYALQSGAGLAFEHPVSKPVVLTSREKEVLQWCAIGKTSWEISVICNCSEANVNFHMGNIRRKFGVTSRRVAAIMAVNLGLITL
pyrG: pyrG (Escherichia coli, UniProt P0A7E5)
Sequence of UniProt P0A7E5 (whole entry, looked up): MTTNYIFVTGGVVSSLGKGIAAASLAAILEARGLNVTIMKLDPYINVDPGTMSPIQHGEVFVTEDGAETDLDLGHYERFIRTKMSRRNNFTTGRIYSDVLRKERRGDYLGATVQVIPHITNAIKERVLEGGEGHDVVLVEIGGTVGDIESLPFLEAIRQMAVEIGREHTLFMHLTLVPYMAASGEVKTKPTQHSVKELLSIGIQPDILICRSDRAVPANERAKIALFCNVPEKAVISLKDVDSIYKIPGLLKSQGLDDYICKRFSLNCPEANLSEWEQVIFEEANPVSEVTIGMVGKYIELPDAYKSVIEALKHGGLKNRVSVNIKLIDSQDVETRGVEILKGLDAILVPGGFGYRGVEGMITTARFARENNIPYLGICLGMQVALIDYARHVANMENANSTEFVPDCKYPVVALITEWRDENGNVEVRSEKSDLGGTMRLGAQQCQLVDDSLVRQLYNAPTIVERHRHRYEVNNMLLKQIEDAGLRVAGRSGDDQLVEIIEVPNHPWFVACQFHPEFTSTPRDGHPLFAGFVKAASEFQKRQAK
Sequence of UniProt P22303 (whole entry, looked up): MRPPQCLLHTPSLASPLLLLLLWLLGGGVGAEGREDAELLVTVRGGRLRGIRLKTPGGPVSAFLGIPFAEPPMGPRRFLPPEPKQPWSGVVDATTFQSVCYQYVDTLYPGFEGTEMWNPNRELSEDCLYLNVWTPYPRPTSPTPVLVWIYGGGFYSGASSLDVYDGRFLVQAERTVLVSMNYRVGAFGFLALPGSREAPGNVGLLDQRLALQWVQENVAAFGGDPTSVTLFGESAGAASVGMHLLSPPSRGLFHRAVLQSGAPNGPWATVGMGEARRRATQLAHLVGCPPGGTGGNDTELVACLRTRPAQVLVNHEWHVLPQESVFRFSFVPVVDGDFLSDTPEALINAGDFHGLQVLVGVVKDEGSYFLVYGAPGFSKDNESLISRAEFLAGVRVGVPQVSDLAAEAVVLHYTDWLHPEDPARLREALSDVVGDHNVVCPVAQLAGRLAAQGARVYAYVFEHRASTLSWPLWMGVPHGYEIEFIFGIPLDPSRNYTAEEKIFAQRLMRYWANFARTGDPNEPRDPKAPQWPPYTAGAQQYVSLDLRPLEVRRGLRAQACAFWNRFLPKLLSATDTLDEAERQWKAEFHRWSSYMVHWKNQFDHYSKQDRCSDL
Sequence of UniProt P28335 (whole entry, looked up): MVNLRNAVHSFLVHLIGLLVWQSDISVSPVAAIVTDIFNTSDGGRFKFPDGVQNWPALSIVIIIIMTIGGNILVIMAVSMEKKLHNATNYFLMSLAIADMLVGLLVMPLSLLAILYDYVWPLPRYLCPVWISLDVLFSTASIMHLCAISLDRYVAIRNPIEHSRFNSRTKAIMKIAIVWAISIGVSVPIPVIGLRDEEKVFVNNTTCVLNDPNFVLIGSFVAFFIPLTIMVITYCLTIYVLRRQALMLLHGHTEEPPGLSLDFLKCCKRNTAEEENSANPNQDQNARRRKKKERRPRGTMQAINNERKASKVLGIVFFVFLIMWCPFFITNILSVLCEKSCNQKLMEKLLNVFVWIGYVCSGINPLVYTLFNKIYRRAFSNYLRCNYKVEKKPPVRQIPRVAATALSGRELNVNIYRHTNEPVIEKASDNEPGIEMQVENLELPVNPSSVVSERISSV
Sequence of UniProt P06276 (whole entry, looked up): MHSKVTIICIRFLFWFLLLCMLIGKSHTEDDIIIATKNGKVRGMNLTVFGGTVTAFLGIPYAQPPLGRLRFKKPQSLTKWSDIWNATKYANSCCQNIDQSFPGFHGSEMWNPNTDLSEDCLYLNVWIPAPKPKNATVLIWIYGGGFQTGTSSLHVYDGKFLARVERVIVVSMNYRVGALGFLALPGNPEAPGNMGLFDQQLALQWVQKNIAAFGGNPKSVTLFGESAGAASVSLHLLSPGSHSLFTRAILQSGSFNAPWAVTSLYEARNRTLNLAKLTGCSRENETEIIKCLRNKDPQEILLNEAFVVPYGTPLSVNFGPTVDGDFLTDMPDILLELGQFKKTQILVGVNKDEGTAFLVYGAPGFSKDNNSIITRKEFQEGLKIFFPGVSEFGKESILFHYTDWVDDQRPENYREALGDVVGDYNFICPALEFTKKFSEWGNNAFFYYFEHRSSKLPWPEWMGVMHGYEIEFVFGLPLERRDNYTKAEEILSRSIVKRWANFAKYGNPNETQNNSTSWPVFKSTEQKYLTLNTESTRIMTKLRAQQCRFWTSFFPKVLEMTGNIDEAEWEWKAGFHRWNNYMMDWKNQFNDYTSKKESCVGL
Sequence of UniProt Q9H2X3 (whole entry, looked up): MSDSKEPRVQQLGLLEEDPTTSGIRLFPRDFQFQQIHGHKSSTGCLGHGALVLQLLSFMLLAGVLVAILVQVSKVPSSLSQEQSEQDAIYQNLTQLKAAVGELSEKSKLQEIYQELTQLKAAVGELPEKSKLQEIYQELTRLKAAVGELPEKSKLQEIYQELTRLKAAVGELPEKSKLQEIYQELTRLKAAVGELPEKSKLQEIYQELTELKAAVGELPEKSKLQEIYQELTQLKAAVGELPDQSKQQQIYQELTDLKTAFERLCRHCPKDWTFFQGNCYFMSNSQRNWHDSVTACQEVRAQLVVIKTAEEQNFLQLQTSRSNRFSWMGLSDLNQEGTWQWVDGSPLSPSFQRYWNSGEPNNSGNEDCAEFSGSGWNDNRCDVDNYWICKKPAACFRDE
Sequence of UniProt P31941 (whole entry, looked up): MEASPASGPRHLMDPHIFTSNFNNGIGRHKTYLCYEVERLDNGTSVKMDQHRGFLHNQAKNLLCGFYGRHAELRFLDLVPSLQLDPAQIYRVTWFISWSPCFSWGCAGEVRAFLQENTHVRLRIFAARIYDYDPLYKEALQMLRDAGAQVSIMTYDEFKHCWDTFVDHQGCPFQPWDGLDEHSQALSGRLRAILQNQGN
Sequence of UniProt P30542 (whole entry, looked up): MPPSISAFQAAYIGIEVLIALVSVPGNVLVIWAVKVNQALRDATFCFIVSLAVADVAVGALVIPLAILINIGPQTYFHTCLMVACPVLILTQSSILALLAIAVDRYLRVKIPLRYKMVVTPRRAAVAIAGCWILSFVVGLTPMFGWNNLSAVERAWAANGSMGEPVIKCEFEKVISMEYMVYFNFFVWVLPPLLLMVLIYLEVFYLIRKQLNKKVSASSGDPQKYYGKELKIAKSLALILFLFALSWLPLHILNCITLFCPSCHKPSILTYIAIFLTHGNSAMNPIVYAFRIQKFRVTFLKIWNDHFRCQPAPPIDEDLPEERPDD
Sequence of UniProt O43318 (whole entry, looked up): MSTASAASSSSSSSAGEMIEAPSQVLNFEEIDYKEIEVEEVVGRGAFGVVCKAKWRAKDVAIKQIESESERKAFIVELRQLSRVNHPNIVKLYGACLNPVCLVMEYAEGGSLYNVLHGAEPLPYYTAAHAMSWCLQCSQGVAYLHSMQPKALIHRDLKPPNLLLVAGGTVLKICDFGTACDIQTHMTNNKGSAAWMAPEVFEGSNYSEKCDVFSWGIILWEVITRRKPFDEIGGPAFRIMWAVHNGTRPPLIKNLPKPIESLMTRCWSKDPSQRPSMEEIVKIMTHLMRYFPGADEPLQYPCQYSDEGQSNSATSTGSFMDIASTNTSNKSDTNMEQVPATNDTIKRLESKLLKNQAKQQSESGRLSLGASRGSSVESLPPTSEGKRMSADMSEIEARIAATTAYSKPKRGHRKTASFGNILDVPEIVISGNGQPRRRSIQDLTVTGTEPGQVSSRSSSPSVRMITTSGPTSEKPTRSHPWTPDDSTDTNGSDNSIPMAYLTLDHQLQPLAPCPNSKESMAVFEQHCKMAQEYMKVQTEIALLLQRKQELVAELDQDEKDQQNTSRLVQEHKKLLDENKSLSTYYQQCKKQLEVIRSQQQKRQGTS
Sequence of UniProt P53341 (whole entry, looked up): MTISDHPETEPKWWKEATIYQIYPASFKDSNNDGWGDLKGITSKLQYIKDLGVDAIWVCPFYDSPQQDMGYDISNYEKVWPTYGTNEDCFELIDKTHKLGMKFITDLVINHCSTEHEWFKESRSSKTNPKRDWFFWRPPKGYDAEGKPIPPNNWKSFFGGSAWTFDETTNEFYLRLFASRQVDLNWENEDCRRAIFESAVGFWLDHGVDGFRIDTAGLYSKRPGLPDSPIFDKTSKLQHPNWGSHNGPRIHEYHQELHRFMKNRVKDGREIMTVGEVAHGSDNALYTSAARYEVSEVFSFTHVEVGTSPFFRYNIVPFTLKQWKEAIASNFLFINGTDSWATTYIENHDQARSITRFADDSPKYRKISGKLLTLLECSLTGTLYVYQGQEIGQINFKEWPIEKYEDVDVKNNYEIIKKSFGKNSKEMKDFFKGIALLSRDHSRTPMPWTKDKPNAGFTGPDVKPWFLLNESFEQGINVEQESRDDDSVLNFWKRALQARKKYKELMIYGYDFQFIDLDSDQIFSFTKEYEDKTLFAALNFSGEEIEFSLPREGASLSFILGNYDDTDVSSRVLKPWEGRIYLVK

Cc1noc(C)c1-c1cc(N)c2ncn(Cc3ccc(C4CO4)cc3)c2c1 (stereo not shown) — IC50 (BRD4 BD1; biochemical; bromodomain 1): 0.03 µM
CC(C)[C@@H](Nc1nc(Cl)nc2c1ncn2[C@H]1[C@H](O)[C@H](O)[C@]2(CO)C[C@H]12)C1CC1 — Ki (5-hydroxytryptamine receptor 2C (HTR2C, Homo sapiens, UniProt P28335); binding; together with: [3H]mesulergine): 0.186 µM
O=C(CCCCCCCCCN=C=S)CC(=O)N[C@H]1CCOC1=O — IC50 (lasR; reporter gene, antagonist, lasI-lacZ reporter; PAO1): 100 µM
Cc1noc(C)c1-c1ccc(=O)n(Cc2ccc(C3CO3)c(F)c2)c1 (stereo not shown) — IC50 (BRD4 BD1; biochemical; bromodomain 1): 0.16 µM
CC(=O)OC12COC1CC(O)C1(C)C(=O)C(OC(=O)N(C)C)C3=C(C)C(OC(=O)C(O)C(C=C(C)C)NC(=O)OC(C)(C)C)CC(O)(C(OC(=O)c4cccc(OC(F)(F)F)c4)C21)C3(C)C (stereo not shown) — IC50 (LCC6-WT; cytotoxicity): 0.00074 µM
O=C(COc1ccc(C(c2c(O)c3ccccc3oc2=O)c2c(O)c3ccccc3oc2=O)cc1)Nc1ccc(Br)cc1 — IC50 (Alpha-glucosidase MAL12 (MAL12, Saccharomyces cerevisiae S288c, UniProt P53341); inhibitor): 41.73 ± 0.36 µM
Nc1ccn(C2OC(COP(=O)(O)OP(=O)(O)OP(=O)(O)O)C(O)C2O)c(=O)n1 (stereo not shown) — IC50 (pyrG; enzyme activity, inhibitor; wild type, together with: UTP 0.05 mM): > 1000 µM
COc1cc(O)c2c(c1)C=CCC(O)C(O)C(=O)CCCC(C)OC2=O (stereo not shown) — IC50 (Mitogen-activated protein kinase kinase kinase 7 (MAP3K7, Homo sapiens, UniProt O43318); enzyme activity, inhibitor): 2.6 µM
CC[C@H](C)[C@H](NC(=O)[C@H](CC(C)C)NC(=O)[C@H](CCCNC(=N)N)NC(=O)CNC(=O)CNC(=O)[C@H](CCCCN)NC(=O)[C@H](CCCNC(=N)N)NC(=O)[C@H](CC(C)C)NC(=O)[C@H](CC(C)C)NC(=O)[C@H](CCCNC(=N)N)NC(=O)[C@@H](NC(=O)[C@H](CC(C)C)NC(=O)[C@@H](N)CO)[C@@H](C)O)C(=O)NCC(=O)N[C@@H](Cc1c[nH]c2ccccc12)C(=O)N[C@@H](CCCNC(=N)N)C(=O)N[C@@H](Cc1c[nH]c2ccccc12)C(=O)N[C@@H](CCC(=O)O)C(=O)N[C@@H](CCCCN)C(=O)N[C@H](C(=O)N[C@@H](CCCNC(=N)N)C(=O)N[C@@H](CC(N)=O)C(=O)N[C@@H](Cc1c[nH]c2ccccc12)C(=O)N[C@H](C(=O)N[C@@H](CCCNC(=N)N)C(=O)N[C@@H](CCCNC(=N)N)C(=O)N[C@H](C(=O)N[C@H](C(=O)N[C@@H](CCC(=O)O)C(=O)N[C@@H](CCCCN)C(=O)N[C@@H](CCCNC(=N)N)C(=O)N[C@@H](CCCCN)C(=O)N1CCC[C@H]1C(=O)N[C@@H](CC(N)=O)C(=O)N[C@@H](CCCCN)C(=O)O)[C@@H](C)CC)[C@@H](C)CC)[C@@H](C)CC)[C@@H](C)O — MIC (Pseudomonas aeruginosa): 0.5 µM (≈ 2.21 µg/mL)
O=C(CCc1ccc(Br)cc1)N[C@H]1CCOC1=O — IC50 (lasR; reporter gene, antagonist, lasI-lacZ reporter): 0.3 µM
NCc1cn([C@@H]2[C@@H](OCCCl)O[C@H](CO)[C@@H](O)[C@@H]2O)nn1 — IC50 (C-type lectin domain family 4 member M, extracellular domain (CLEC4M, Homo sapiens, UniProt Q9H2X3); binding to SARS-CoV-2 spike, inhibitor, surface plasmon resonance; together with: spike surface 1913 RU): 271 ± 21.1 µM
CNC(=O)[C@@]12C[C@@H]1[C@@H](n1cnc3c(NC(C4CC4)C4CC4)nc(Cl)nc31)[C@H](O)[C@@H]2O — Ki (Adenosine receptor A1 (ADORA1, Homo sapiens, UniProt P30542); binding; together with: [3H]R-PIA): 0.11 ± 0.014 µM
C[C@H](NC(=O)CNC(=O)[C@@H]1CCCN1C(=O)[C@H](CO)NC(=O)CNC(=O)CN)C(=O)N[C@@H](CCCCN)C(=O)N[C@@H](CCCCN)C(=O)N[C@@H](CC(N)=O)C(=O)N[C@H](C(=O)N[C@@H](CCCCN)C(=O)N[C@@H](CO)C(=O)N[C@@H](C)C(=O)N[C@@H](CS)C(=O)NCC(=O)N[C@@H](CCCCN)C(=O)N[C@@H](C)C(=O)N[C@@H](CS)C(=O)N[C@@H](C)C(=O)N[C@@H](CS)C(=O)N[C@@H](Cc1c[nH]cn1)C(=O)O)[C@@H](C)O — MIC (Pseudomonas aeruginosa): 32 µM (≈ 63.2 µg/mL)
O=C1C=C(Br)/C(=C/Br)O1 — IC50 (lasR; reporter gene, antagonist, lasB-gfp(ASV) reporter; PAO1): 2 µM
Nc1ccn(C2OC(COP(=O)(O)OP(=O)(O)OP(=O)(O)O)C(O)C2(F)F)c(=O)n1 (stereo not shown) — IC50 (pyrG; enzyme activity, inhibitor; wild type, together with: UTP 0.05 mM): 1.2 µM and ~1.2 µM
Cc1ccc(NC(=O)Cn2cc(COc3ccccc3C=O)nn2)cc1C — IC50 (Acetylcholinesterase (ACHE, Homo sapiens, UniProt P22303); inhibitor): 0.458 µM
Nc1ccn(C2OC(COP(=O)(O)OP(=O)(O)OP(=O)(O)O)C(O)C2F)c(=O)n1 (stereo not shown) — IC50 (pyrG; enzyme activity, inhibitor; wild type, together with: UTP 0.20 mM): 43 µM
O=C(/C=C/c1ccc(OCc2ccc([N+](=O)[O-])cc2)cc1)NCCc1c[nH]c2ccccc12 — IC50 (Cholinesterase (BCHE, Homo sapiens, UniProt P06276)): 0.55 ± 0.04 µM
NC(Cc1cc(O)c(O)cc1O)C(=O)O (stereo not shown) — IC50 (DNA dC->dU-editing enzyme APOBEC-3A (Homo sapiens, UniProt P31941)): 0.3 µM

A few entries again:
O=C(CCCCCCCCCN=C=S)CC(=O)N[C@H]1CCOC1=O — IC50 (lasR; reporter gene, antagonist, lasI-lacZ reporter; PAO1): 100 µM
